Measurements gathered from unrelated publications.
Compare with care: the assays were run in different laboratories. ± marks the error that the study gave.
AURKA: Aurora kinase A (AURKA, Homo sapiens, UniProt O14965)
Chain of UniProt O14965 (whole entry, looked up): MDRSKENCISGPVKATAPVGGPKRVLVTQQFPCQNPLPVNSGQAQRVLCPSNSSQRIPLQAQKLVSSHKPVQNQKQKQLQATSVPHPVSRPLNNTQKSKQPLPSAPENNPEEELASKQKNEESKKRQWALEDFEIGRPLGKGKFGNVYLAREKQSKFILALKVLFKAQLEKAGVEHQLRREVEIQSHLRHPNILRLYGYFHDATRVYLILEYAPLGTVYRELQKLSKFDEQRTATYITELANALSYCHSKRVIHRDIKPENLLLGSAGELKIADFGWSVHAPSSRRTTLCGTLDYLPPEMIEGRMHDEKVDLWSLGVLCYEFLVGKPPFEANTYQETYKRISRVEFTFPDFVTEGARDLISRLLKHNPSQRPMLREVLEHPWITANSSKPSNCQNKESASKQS
NOD2: Nucleotide-binding oligomerization domain-containing protein 2 (NOD2, Homo sapiens, UniProt Q9HC29)
Chain of UniProt Q9HC29 (whole entry, looked up): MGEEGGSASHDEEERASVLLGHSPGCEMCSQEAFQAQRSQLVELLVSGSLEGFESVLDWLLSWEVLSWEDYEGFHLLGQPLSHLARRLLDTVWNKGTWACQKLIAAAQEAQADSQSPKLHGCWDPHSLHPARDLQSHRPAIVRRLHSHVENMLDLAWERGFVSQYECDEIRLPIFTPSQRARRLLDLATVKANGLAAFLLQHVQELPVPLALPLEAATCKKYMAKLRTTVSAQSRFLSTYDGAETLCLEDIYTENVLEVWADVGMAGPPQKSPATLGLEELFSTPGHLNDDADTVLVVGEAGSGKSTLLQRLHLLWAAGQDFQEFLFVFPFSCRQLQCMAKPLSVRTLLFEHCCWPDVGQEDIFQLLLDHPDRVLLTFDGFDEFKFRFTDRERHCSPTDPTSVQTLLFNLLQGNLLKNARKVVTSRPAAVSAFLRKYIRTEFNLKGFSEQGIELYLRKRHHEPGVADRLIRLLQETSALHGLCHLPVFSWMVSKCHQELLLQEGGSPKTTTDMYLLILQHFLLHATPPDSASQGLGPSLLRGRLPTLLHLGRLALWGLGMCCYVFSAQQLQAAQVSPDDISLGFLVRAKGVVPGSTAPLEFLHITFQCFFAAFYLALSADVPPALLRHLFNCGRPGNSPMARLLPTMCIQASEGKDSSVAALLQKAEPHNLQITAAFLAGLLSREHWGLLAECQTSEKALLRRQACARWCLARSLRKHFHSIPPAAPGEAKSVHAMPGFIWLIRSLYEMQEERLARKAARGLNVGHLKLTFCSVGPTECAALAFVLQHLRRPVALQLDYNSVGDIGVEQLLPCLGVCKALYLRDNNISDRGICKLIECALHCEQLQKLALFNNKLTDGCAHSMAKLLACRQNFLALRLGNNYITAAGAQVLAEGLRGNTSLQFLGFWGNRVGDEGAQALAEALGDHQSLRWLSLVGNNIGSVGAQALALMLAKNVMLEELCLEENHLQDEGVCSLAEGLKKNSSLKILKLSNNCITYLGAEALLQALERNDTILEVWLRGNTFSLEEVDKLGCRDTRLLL
Chain of UniProt Q9RUB5 (whole entry, looked up): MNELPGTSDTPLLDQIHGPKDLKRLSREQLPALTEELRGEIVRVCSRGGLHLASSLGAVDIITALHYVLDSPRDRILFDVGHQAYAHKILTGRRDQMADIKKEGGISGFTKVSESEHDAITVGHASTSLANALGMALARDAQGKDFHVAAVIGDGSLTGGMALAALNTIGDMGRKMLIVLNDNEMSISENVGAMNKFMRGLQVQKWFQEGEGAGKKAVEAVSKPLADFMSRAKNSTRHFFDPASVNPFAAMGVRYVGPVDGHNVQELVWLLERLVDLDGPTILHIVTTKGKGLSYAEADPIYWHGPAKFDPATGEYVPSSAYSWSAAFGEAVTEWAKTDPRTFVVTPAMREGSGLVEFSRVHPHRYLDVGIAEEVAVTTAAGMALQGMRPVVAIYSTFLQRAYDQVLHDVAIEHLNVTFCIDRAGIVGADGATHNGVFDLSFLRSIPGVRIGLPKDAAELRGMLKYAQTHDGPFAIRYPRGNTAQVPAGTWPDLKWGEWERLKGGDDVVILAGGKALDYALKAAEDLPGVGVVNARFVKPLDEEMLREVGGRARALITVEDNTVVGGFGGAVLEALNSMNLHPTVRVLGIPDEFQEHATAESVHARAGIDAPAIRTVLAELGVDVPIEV
Chain of UniProt P51449 (whole entry, looked up): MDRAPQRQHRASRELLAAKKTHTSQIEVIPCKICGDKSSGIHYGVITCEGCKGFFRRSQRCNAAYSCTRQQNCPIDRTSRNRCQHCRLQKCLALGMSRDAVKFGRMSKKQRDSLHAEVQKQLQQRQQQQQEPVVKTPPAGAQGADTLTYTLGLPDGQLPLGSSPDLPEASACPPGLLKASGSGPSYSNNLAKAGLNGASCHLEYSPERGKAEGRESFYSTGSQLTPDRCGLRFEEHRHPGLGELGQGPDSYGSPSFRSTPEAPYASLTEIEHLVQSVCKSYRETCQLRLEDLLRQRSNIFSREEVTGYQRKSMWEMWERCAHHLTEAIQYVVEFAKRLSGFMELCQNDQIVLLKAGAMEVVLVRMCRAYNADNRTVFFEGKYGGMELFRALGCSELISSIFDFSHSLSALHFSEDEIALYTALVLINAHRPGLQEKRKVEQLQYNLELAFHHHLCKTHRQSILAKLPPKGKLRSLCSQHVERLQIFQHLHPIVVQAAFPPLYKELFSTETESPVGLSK
Chain of UniProt A2RI47 (whole entry, looked up): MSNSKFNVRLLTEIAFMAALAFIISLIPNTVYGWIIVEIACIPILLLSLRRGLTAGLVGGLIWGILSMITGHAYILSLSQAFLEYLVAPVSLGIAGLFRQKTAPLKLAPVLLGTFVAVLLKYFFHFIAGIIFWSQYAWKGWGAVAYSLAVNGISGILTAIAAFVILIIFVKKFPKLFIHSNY
Chain of UniProt P08172 (whole entry, looked up): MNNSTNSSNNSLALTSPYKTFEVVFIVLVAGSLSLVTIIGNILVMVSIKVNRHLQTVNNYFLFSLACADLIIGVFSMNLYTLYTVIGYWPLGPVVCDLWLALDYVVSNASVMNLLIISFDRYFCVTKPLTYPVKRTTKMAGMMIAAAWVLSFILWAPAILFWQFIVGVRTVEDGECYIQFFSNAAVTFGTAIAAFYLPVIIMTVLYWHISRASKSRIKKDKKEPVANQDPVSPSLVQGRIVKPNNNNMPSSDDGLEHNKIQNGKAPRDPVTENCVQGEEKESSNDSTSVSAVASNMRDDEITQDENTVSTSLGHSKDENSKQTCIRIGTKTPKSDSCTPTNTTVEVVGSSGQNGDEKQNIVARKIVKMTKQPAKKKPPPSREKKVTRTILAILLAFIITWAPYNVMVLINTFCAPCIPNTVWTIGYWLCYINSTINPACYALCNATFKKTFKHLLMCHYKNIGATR
Chain of UniProt P19438 (whole entry, looked up): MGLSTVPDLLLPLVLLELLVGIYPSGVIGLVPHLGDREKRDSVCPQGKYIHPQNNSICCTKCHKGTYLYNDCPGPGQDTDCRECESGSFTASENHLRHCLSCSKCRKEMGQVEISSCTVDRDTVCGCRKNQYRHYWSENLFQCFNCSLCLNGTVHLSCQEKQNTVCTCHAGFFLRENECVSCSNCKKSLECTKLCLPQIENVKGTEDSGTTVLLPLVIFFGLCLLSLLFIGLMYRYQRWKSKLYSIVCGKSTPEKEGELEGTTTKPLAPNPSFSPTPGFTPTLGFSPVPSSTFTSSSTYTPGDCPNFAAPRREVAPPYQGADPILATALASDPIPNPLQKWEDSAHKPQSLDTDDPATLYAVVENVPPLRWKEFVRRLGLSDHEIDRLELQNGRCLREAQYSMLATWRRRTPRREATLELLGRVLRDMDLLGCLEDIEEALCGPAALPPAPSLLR
Chain of UniProt P40337 (whole entry, looked up): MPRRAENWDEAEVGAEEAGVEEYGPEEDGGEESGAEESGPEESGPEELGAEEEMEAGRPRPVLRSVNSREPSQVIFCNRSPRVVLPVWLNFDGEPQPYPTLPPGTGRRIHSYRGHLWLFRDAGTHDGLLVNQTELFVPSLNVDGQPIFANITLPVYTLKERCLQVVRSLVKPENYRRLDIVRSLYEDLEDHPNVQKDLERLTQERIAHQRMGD
Chain of UniProt P0C061 (whole entry, looked up): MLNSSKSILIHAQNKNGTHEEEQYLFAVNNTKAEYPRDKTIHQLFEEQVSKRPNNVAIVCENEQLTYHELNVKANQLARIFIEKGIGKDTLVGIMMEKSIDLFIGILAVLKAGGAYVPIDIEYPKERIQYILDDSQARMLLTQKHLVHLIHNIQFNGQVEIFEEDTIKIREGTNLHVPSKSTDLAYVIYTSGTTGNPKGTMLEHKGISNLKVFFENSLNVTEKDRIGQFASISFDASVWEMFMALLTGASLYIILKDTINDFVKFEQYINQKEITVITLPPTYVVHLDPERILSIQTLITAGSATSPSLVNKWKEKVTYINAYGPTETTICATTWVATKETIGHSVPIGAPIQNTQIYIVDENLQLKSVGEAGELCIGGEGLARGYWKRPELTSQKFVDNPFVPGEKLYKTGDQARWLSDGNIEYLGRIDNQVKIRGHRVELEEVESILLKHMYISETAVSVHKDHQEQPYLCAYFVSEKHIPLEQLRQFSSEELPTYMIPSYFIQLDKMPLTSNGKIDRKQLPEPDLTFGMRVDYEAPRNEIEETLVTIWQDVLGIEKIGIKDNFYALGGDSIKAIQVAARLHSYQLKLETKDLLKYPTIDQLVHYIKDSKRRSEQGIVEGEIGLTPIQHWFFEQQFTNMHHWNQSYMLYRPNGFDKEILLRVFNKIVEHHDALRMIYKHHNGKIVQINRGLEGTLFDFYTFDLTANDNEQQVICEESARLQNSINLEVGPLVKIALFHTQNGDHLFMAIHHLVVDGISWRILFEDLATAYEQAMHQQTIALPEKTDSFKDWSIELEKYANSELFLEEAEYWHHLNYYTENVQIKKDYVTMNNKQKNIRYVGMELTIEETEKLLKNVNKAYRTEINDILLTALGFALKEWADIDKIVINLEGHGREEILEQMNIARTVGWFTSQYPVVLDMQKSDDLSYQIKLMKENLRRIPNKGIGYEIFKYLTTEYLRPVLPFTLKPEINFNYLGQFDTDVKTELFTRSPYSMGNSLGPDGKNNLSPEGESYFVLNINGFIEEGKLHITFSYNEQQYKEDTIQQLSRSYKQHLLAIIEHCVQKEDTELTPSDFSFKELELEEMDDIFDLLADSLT

Compound | target | assay | test system | setting | Kd
CCOc1cccc(C(=O)Nc2ccc(-c3nc4ccccc4[nH]3)cc2)c1 | Heat shock protein 90, N-terminal domain (Plasmodium falciparum, UniProt Q8IC05) | binding, SPR | – | – | 210 nM
C[C@H](CCC(=O)NCc1ccccc1)[C@H]1CC[C@H]2[C@@H]3CC[C@@H]4CC(=O)CC[C@]4(C)[C@H]3CC[C@]12C | RORC (Homo sapiens, UniProt P51449) | binding, MST | – | – | 724 nM
CN(C)CCNC(=O)c1cccc2c(NCCCCc3c(N)nc(N)nc3N)c3ccccc3nc12 | RNA with C–C mismatch | binding, ITC | – | 25 °C, 2 | 162000 ± 8000 nM
NC(Cc1ccc(F)cc1F)C(=O)O (racemic) | grsA (Aneurinibacillus migulanus, UniProt P0C061) | binding, ITC | – | – | 420000 nM
C[n+]1ccc(/C=N/NC(=O)c2cccc(C(=O)N/N=C/c3cc[n+](C)c4ccccc34)n2)c2ccccc21 | MYC promoter G4 DNA | binding, native ESI-MS | 100 mM trimethylammonium acetate | 1 mM KCl | 53 nM
O=C1c2ccc(O)cc2-c2c(-c3ccc(O)cc3)oc3cc(O)cc1c23 | Heat shock protein HSP 90-alpha, middle domain (HSP90AA1, Homo sapiens, UniProt P07900) | binding, fluorescence polarization | – | middle domain fragment | 130 nM
CC[C@H](C)[C@H](NC(=O)[C@H](Cc1c[nH]cn1)NC(=O)[C@H](CC(N)=O)NC(=O)[C@@H](N)[C@@H](C)O)C(=O)N[C@@H](Cc1ccc(OP(=O)(O)O)cc1)C(=O)N[C@@H](CO)C(=O)N[C@@H](CC(N)=O)C(=O)N[C@@H](CC(C)C)C(=O)N[C@@H](C)C(=O)N[C@@H](CC(N)=O)C(=O)N[C@@H](CS)C(=O)N[C@@H](CO)C(=O)N[C@@H](CC(=O)O)C(=O)O | SH2 domain-containing protein 1B, SH2 domain (SH2D1B, Homo sapiens, UniProt O14796) | binding, fluorescence polarization | – | phosphopeptide probe | ~1000 nM
Cc1ncc(Cc2csc(C=NNC(=O)Cc3cccc(O)c3)c2C)c(N)n1 (mixture of isomers) | Thiamine transporter ThiT (Lactococcus lactis subsp. cremoris, UniProt A2RI47) | binding, ITC | – | – | 28800 nM
COC(=O)c1c(O)cc(O)c(Cl)c1CCc1cccc(Cc2ccccc2)c1 | HSP90AA1 (Homo sapiens, UniProt P07900) | ligand displacement, FP | – | – | > 100000 nM
CCCC[C@@H]1NC(=O)[C@H](Cc2ccc(O)cc2)NC(=O)[C@@H]2CCCN2C(=O)[C@H](CC(=O)O)NC(=O)[C@H](C)NC(=O)[C@H](Cc2ccccc2)NC(=O)[C@@H]2CSCCC(=O)N3CN(CN(C3)C(=O)CCSC[C@@H](C(=O)N[C@@H](C)C(N)=O)NC1=O)C(=O)CCSC[C@H](NC(C)=O)C(=O)N[C@@H](CC(C)(C)C)C(=O)N1CCC[C@H]1C(=O)N[C@@H](CCC(=O)O)C(=O)N[C@H](CCCCNC(=O)CCc1cn(CCOCCOCCOCCN(CCOCCOCCOCCC(=O)N[C@H]3CSCCC(=O)N4CN5CN(C4)C(=O)CCSC[C@H](NC(=O)[C@@H](CC(=O)O)NC(=O)[C@H](Cc4cccc6ccccc46)NC(=O)[C@@H]4CCCN4C3=O)C(=O)N[C@@H](CCSC)C(=O)N[C@@H](CCCCNC(=N)N)C(=O)N[C@@H](CC(=O)O)C(=O)N[C@@H](Cc3c[nH]c4ccccc34)C(=O)N[C@@H](CO)C(=O)N[C@@H]([C@@H](C)O)C(=O)N3CCC[C@H]3C(=O)N3C[C@H](O)C[C@H]3C(=O)N[C@@H](Cc3c[nH]c4ccccc34)C(=O)N[C@H](C(N)=O)CSCCC5=O)CCOCCOCCOCCn3cc(CCC(=O)NCCCC[C@H]4NC(=O)[C@H](CCC(=O)O)NC(=O)[C@@H]5CCCN5C(=O)[C@H](CC(C)(C)C)NC(=O)[C@@H](NC(C)=O)CSCCC(=O)N5CN6CN(C5)C(=O)CCSC[C@H](NC(=O)[C@H](Cc5ccc(O)cc5)NC(=O)[C@@H]5CCCN5C4=O)C(=O)N[C@@H](Cc4ccccc4)C(=O)N[C@@H](C)C(=O)N[C@@H](CC(=O)O)C(=O)N4CCC[C@H]4C(=O)N[C@@H](Cc4ccc(O)cc4)C(=O)N[C@@H](CCCC)C(=O)N[C@H](C(=O)N[C@@H](C)C(N)=O)CSCCC6=O)nn3)nn1)C(=O)N1CCC[C@H]1C(=O)N[C@@H](Cc1ccc(O)cc1)C(=O)N2 | Tumor necrosis factor receptor superfamily member 9 (Tnfrsf9, Mus musculus, UniProt P20334) | SPR | – | together with: captured on human Nectin-4 | no binding
N=C(CCl)NCCNc1c2c(c(NCCNC(=N)CCl)c3sccc13)C(=O)c1ccccc1C2=O | AURKA | binding, tryptophan fluorescence quenching | – | pH 7.5, 25 °C, AurA 3.0 µM | 33200 ± 4600 nM
O=c1c(OS(=O)(=O)O)c(-c2ccc(OS(=O)(=O)O)c(OS(=O)(=O)O)c2)oc2cc(OS(=O)(=O)O)cc(OCCCOc3cc(OS(=O)(=O)O)cc4oc(-c5ccc(OS(=O)(=O)O)c(OS(=O)(=O)O)c5)c(OS(=O)(=O)O)c(=O)c34)c12 | N-acetylmuramoyl-L-alanine amidase (PGLYRP2, Homo sapiens, UniProt Q96PD5) | microscale thermophoresis | – | – | 36900 nM
Fc1cc2c(c3ncccc13)OCN(CCc1cccc(Br)c1)C2 | Large ribosomal subunit protein uL10 (rplJ, Escherichia coli, UniProt P0A7J3) | binding | – | – | 20000 nM
Nc1ncc(/C=N/NC(=O)Cc2c[nH]c3ccccc23)cn1 | dxs (Deinococcus radiodurans, UniProt Q9RUB5) | binding, SPR | – | – | 270000 nM
COc1cc(C2CC(=O)Nc3nc(N)[nH]c(=O)c32)ccc1O (stereo not drawn) | uncharacterized protein (Leishmania donovani, UniProt A0A3Q8IA09) | competitive ITC | – | together with: glutamate 60 µM | 2500 nM
CCOc1cccc([C@@H]2CC(=O)Nc3c2c(C)nn3-c2ccc3nncn3n2)c1 | DDB1 (Homo sapiens, UniProt Q16531) | binding, SPR | – | – | 2000 nM
Cc1[nH]c2c(O)c3c(c(O)c2c1C(=O)NC1CCNCC1)C(=O)c1ccccc1C3=O | AURKA | binding, tryptophan fluorescence quenching | – | pH 7.5, 25 °C, AurA 3.0 µM | 35600 ± 4400 nM
[3H]CC([3H])C(=O)NC1CN(CCCCC2CCN(CC(=O)N3c4ccccc4NC(=O)c4ccccc43)CC2)CCN(CCCOc2nsnc2C2=CCCN(C)C2)C1 (stereo not drawn) | CHRM2 (Homo sapiens, UniProt P08172) | binding, radioligand | – | – | 1 nM
C[C@H](N)C(=O)N[C@H](CCC(=O)O)C(N)=O | NOD2 | binding | – | pH 6.5 | 2 to 10 nM
CC(=O)N[C@H]1CSSC[C@@H](C(N)=O)NC(=O)[C@H](C(C)C)NC(=O)[C@H](C)NC(=O)[C@H](Cc2c[nH]cn2)NC(=O)[C@H](CO)NC1=O | CDH1, EC1 domain (Homo sapiens, UniProt P12830) | binding, HSQC NMR titration | EC1 domain | – | 5000 to 10000 nM
COCCOC(=O)Nc1ccc2c(c1)c(Cc1ccc(C(=O)NS(=O)(=O)c3ccc(C(F)(F)F)cc3)cc1OC)cn2C | Tumor necrosis factor receptor superfamily member 1A, extracellular domain (Homo sapiens, UniProt P19438) | binding, 19F NMR | PBS | pH 7.4 | 12000 nM
Cc1ncsc1-c1ccc([C@@H]2CCCCCCNC(=O)C[C@@H]3N=C(c4ccc(cc4)OCCCCCC(=O)N[C@@H](C(C)(C)C)C(=O)N4C[C@H](O)C[C@H]4C(=O)N2)c2c(sc(C)c2C)-n2c(C)nnc23)cc1 | BRD4/VHL, BD2; with elongins B/C (Homo sapiens, UniProt O60885+P40337) | ternary complex binding, biolayer interferometry | – | together with: VHL-ElonginC-ElonginB | 6.9 nM
NC(=O)CN(CC(=O)O)CC(=O)O | Zn2+ | binding, ITC | – | pH 7.0, 25 °C | 231 ± 10 nM
COC(=O)CC[C@H](NC(=O)[C@H](C)NC(=O)[C@@H](C)O[C@H]1[C@H](O)[C@@H](CN)OC(O)[C@@H]1NC(C)=O)C(N)=O (stereo partly drawn) | NOD2 | binding, SPR | – | pH 6.5 | 12 to 24 nM

Excerpt of the above:
Compound | target | assay | test system | setting | Kd
CC(=O)N[C@H]1CSSC[C@@H](C(N)=O)NC(=O)[C@H](C(C)C)NC(=O)[C@H](C)NC(=O)[C@H](Cc2c[nH]cn2)NC(=O)[C@H](CO)NC1=O | CDH1, EC1 domain (Homo sapiens, UniProt P12830) | binding, HSQC NMR titration | EC1 domain | – | 5000 to 10000 nM
